Measured values gathered from unrelated publications.
Parts stem from different laboratories: compare values within a part only. Substitutions count along the parent as printed.

Set 1 — target: CCNE1, cyclin fold, Cln2 fusion (human); method: yeast growth competition, sequencing; matrix: yeast; setting: weak parent motif; baseline: not given; reading: higher = stronger binding
Parent: CDC6 docking peptide (human); TLKGRRLVFDNQL
Under “normalised enrichment score”, `G4M` is recorded as 1.01.
Under “normalised enrichment score”, `T1P` is recorded as 1.18.
`N11E` — result for “normalised enrichment score”: 0.661.
`G4H` — result for “normalised enrichment score”: 0.292.
`Q12W`: “normalised enrichment score” 1.63.
For `R6W`, “normalised enrichment score” read -0.539.
`T1S` — result for “normalised enrichment score”: 0.719.
`G4C` — result for “normalised enrichment score”: 1.05.
For `D10M`, “normalised enrichment score” read 0.931.
`L13C` — result for “normalised enrichment score”: 1.43.
`L7N` — result for “normalised enrichment score”: 0.0867.
For `R5A`, “normalised enrichment score” read 0.209.
Under “normalised enrichment score”, `T1Y` is recorded as 0.16.
For `G4T`, “normalised enrichment score” read 0.0921.
`L2M`: “normalised enrichment score” 0.459.
`D10W`: “normalised enrichment score” 0.482.
For `N11M`, “normalised enrichment score” read 0.647.
For `R6A`, “normalised enrichment score” read -0.266.

Set 2 — method: DHFR PCA, deep sequencing; matrix: yeast; with: (+)-ABA 0 µM; baseline: wild-type fitted maximum; reading: higher = stronger binding
Target: ABI1, truncated, D143A, DHFR fusion (Arabidopsis thaliana)
Setting: methotrexate growth selection, single substitutions
Parent: PYL1, truncated, DHFR fusion (Arabidopsis thaliana); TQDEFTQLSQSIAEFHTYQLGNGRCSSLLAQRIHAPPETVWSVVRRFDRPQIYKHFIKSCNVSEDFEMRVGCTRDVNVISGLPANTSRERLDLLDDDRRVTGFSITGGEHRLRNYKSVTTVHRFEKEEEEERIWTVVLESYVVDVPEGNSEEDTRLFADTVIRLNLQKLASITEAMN; partner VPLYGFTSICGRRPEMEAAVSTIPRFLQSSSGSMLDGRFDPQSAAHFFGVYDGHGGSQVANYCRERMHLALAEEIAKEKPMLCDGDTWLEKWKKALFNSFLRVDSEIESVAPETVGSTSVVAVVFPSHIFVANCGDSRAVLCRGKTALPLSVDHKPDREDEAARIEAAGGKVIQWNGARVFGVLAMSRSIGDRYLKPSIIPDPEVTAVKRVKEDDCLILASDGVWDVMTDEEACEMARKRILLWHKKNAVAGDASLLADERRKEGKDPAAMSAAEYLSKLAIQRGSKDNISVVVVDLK
`P83R`: “relative binding score” 16.7%.
Under “relative binding score”, `H122V` is recorded as -3.43%.
`Q2N`: “relative binding score” 24.1%.
`T1W` — result for “relative binding score”: 18.8%.
`R46C`: “relative binding score” 2.54%.
`A170F` — result for “relative binding score”: -55.8%.
Under “relative binding score”, `C25H` is recorded as -6.22%.
For `P146S`, “relative binding score” read 5.82%.
`V40E`: “relative binding score” -6.32%.
`E128M` — result for “relative binding score”: 8.16%.
`C60N`: “relative binding score” 0.849%.

Set 3 — target: CRIPT, C-terminal peptide; method: DHFR complementation, deep sequencing; matrix: yeast; baseline: wild type; reading: higher = weaker binding
Setting: single substitutions, model-inferred values
Parent: ERBIN, PDZ domain 1 (human); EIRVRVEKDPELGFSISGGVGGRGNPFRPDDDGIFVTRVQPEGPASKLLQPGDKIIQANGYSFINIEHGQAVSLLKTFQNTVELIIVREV; partner TKNYKQTSV
For `G43D`, “binding free energy change” read 1.18 kcal/mol.
For `Y61H`, “binding free energy change” read -0.0145 kcal/mol.
`G19P`: “binding free energy change” 1.32 kcal/mol.
Under “binding free energy change”, `V4D` is recorded as 0.781 kcal/mol.
`I64Y` — result for “binding free energy change”: 0.00976 kcal/mol.
Under “binding free energy change”, `S46K` is recorded as 0.0187 kcal/mol.
For `K76G`, “binding free energy change” read 0.71 kcal/mol.
`G13C` — result for “binding free energy change”: 0.72 kcal/mol.
Under “binding free energy change”, `P29I` is recorded as 0.232 kcal/mol.
Under “binding free energy change”, `G43F` is recorded as 0.903 kcal/mol.
`Q57L`: “binding free energy change” 0.143 kcal/mol.
Under “binding free energy change”, `D32Q` is recorded as 0.246 kcal/mol.
For `I34T`, “binding free energy change” read 0.441 kcal/mol.
`T81G`: “binding free energy change” 0.104 kcal/mol.
Under “binding free energy change”, `S46P` is recorded as 0.789 kcal/mol.

Set 4 — method: protein-binding microarray; form: double-stranded DNA, one strand shown; matrix: in vitro; tested at: 250 nM; setting: 60-bp whole probe; with: salmon DNA 0.4 mg/ml; baseline: random background probes; reading: higher = stronger binding; constant ends, left off below: GCCTAGCAC … GTCTTGATTCGCTTGACGCTGCTG
Target: Interferon regulatory factor 7, full length, phosphomimetic (IRF7, Homo sapiens, UniProt Q92985, residues 1-503, S101K/S471D/S472D/S475D/S476D/S477D/S483D/S484D/S487D)
Construct (chain): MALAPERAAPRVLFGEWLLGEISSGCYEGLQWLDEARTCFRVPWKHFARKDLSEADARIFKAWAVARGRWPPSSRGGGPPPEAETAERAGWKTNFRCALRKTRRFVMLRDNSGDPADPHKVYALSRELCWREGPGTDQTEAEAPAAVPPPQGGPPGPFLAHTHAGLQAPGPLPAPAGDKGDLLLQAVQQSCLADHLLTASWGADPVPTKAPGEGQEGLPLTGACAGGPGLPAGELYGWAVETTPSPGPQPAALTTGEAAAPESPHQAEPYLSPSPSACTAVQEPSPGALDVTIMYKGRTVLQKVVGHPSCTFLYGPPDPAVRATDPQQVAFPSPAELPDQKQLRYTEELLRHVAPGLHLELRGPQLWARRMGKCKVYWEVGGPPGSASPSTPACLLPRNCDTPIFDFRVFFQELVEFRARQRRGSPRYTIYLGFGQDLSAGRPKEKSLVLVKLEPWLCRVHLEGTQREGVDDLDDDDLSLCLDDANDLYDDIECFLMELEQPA
For `GACGGCTTCGGGTATCGGGACGTGCTA`, the log fluorescence was -0.192 z-score.
With `CTCTGCTTGTGTCTGGGATTGTGCTAG` the log fluorescence was -0.35 z-score.
`TCAACTTTCTTTCAAATACTGTGCTAG` has a log fluorescence of 0.397 z-score.
For `GTCGGTTTCGGGACTGGGGACGTGCTA`, the log fluorescence was 5.16 z-score.
For `GACGGTATCGGGACTGGGGCCGTGCTA`, the log fluorescence was -0.588 z-score.
The log fluorescence of `TCACATCGTAAGCAAAAACTGTGCTAG` is reported as 0.404 z-score.
`TTAGGTTTCGACTTTCGGCTAGTGCTA` gave a log fluorescence of 10.6 z-score.
The log fluorescence of `GACGATTACAGTCTCGAGACGTGCTAG` is reported as 0.272 z-score.
For `TTAGCACTGGGACTGGGTTAGTGCTAG`, the log fluorescence was 0.00206 z-score.
For `TTAGGACTGCAACTGCTTTAGTGCTAG`, the log fluorescence was -0.222 z-score.

Set 5 — method: RNA Bind-n-Seq; form: RNA; matrix: in vitro; tested at: 365 nM; baseline: no-protein control; reading: higher = stronger binding
Target: RNA binding protein fox-1 homolog 2, RRM domain, GST-SBP tag (RBFOX2, Homo sapiens, UniProt O43251-10, residues 100-194)
Setting: natural RNA segment, single round, ends assumed
Constant ends, left off below: GGGAGUUCUACAGUCCGACGAUC … UGGAAUUCUCGGGUGCCAA
Residues (chain): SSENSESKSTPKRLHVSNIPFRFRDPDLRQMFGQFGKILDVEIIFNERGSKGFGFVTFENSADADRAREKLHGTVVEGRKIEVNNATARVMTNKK
For `AUUAUCAAGUUUCAAAGACCUGUGUCAACCAUACAGCAAAGGCAGACCCCAUAACGACGUCCCACAAAAUGGAAAUAAAACGCAAAAUCUCUUUAGCAUUGUGUAAAUAA`, “RBNS enrichment (R)” read 0.351.
Under “RBNS enrichment (R)”, `CUGUGACAAUCAGCAAAGCCCCACCCAGGCCCCCAUCUGGGAUGAUGGGAGAGCUCUGGCAGAUGUCCCAAUCCUGGAGGUCAUCCAUUAGGAAUUAAAUUCUCCAGCCU` is recorded as 0.338.
`UAAUCAGUGGUGCUUUUGUGCCUAGGUUUUAUGUGAUUUUAAUGAAAUAUGGAUAGUUGUGGCCACCUGCUGACUAUUUGUGGUUUAAAAUAAAAAGGUUUUCUUGUCUG` — result for “RBNS enrichment (R)”: 0.27.
Under “RBNS enrichment (R)”, `UUUAAGAAUGCUCAGAAGAAAUUGAUAAUCUGUGUGAAUAUGUUUUAGAUGUUUAUAUACCUUUUGAAGAGACCCAGUAGCCCAUAGCACAAAUCUUGUGGAAAUCCGAU` is recorded as 10.2.
`UUUGAAAGUAAUUGACAGAAAACUACAAACACGUAGGAUGCCCUGCGCCUCAGCAGCACCCACCCCAGAGCCUCUUGGCAUGCCCAGCUUUCUUUUCAGUACAAGUAUUU`: “RBNS enrichment (R)” 0.91.
`AACCUGUCCCUUUCCCUGCCAGCAAACCCCACCACCCUAAGAGAAAUUUUAGCUUAUAUAUGACGGUAUAUUUACAAAAAGAGAAAGAGAAAAUCUGGUAUUUGCAAUGA` — result for “RBNS enrichment (R)”: 0.43.
`ACACCAGCCAUGUCUGCUGAAGGGCCCCAGACUGAGAUGACUCCGGCCUCCACAGUUAGAUGUUUAUGGUGCCAGAGGUCUAUAUUAAGGUAGCUGUCUGUUGCUAGGCA`: “RBNS enrichment (R)” 0.543.
`UCUGACCUGACCUCCAUAUCUUCUCUUGCCAGCCUUUCCCUAUGCUCCCUCAAAUAUGUAUCUGAUGAGAUUCUUUAAUUCCCAACUCCAUGUGUGUGCGAGCACGCGUG` — result for “RBNS enrichment (R)”: 0.778.
